Assay results collected from several papers.
Compare with care: the assays were run in different laboratories. Numbers after ± are the reported error. Converted amounts (≈) assume the structure as drawn.

Structure (SMILES)	organism	test	test system	setting	scale	quantity	result
C[C@]12C=CC(=O)C=C1CC[C@@H]1C2=CC[C@]2(C)[C@@H](C(=O)CN3CCN(c4cc(N5CCCC5)nc(N5CCCC5)n4)CC3)CC[C@@H]12	Plasmodium falciparum		Dd2			IC50	10 µM
Cc1cccc(C(=O)N2CCN(Cc3cccc(NC(=O)c4cccs4)c3)CC2)c1	Plasmodium falciparum	parasite growth, SYBR Green	3D7 DHODH E182D	72 h		EC50	1.19 ± 0.22 µM
CC(C)[C@@H]1NC(=O)[C@@H](C(C)C)NC(=O)[C@H](C)NC(=O)[C@H](CO)NC(=O)[C@H](Cc2c[nH]c3ccccc23)NC(=O)[C@@H](Cc2ccc(O)cc2)NC(=O)[C@H](CCCN)NC(=O)[C@H](Cc2c[nH]c3ccccc23)NC1=O	Acanthamoeba castellanii			trophozoites		IC50	> 16 µg/mL
COc1ccccc1Cn1ccnc1SCC(=O)Nc1cccc(C(F)(F)F)c1	Plasmodium falciparum	parasite growth, SYBR Green	3D7 DHODH E182D	72 h		EC50	5.23 ± 1.2 µM
CC(C)[C@@H]1NC(=O)[C@@H](CCCN)NC(=O)[C@H]([C@@H](C)O)NC(=O)[C@H](Cc2ccccc2)NC(=O)[C@@H](Cc2ccccc2)NC(=O)[C@H](Cc2ccccc2)NC(=O)[C@@H](CCCN)NC1=O	Naegleria fowleri			trophozoites		IC50	> 16 µg/mL
COc1cc(N[C@H](C(=O)c2c[nH]c3ccc(OC(F)(F)F)cc23)c2ccc(Cl)cc2OC)cc(S(C)(=O)=O)c1	dengue virus 2	viral infection, luciferase reporter virus		0.003 nM, 48 h		inhibition	2.1%
COc1ccc(NC(=O)N2CCCCN3[C@H](CN(C)C)[C@H](c4ccc(C#Cc5ccccc5)cc4)[C@@H]3C2)cc1	Cryptosporidium parvum	host cell invasion		concentration not given	baseline: vehicle	inhibition	0.4 ± 20%
COC(=O)c1c(-c2cc(OC)c(OC)c(OC)c2)c2ccc(OCc3ccccn3)cc2c(=O)n1-c1ccc(N)cc1	Plasmodium falciparum		W2			IC50	2.51 µM
Cc1cc(OC(C)C(=O)N2CCc3ccccc32)ccc1Cl (stereo not shown)	Plasmodium falciparum	parasite growth, SYBR Green	3D7 wild type	72 h		EC50	3.19 ± 1.6 µM
CCCCN1[C@@H]2CC[C@H]1C[C@@H](OC(c1ccc(F)cc1)c1ccc(F)cc1)C2	Plasmodium falciparum		7G8			IC50	1.58 µM
CS(=O)(=O)CCCn1c(Cn2c(=O)n(CC(F)(F)F)c3ccncc32)cc2cc(Cl)ccc21	respiratory syncytial virus	RT-qPCR	hospitalized infants 1-24 months, nasal swab	oral, 1-9 mg/kg daily, day 3, all doses combined	baseline: placebo	LS mean difference vs placebo	-1.62 log10 copies/mL
CNC(=O)c1cc(Cl)cc(C)c1NC(=O)c1cc(Br)nn1-c1ncccc1Cl	Spodoptera litura	leaf-dip	third instar larvae	12.5 ppm, 96 h		mortality	100%
Cn1c(=O)ccc2ccc(F)c(CCNC[C@H]3CN(c4cnc5c(n4)NC(=O)CO5)C(=O)O3)c21	Providencia spp.					MIC50	0.5 µg/mL (≈ 1.07 µM)
CCOC(=O)N1CCC(=C2c3ccc(Cl)cc3CCc3cccnc32)CC1	Plasmodium falciparum		Dd2			IC50	10 µM
NCCCC[C@@H]1NC(=O)[C@@H](CCCN)NC(=O)[C@@H](Cc2ccccc2)NC(=O)[C@H](Cc2ccccc2)NC(=O)CNC1=O	Naegleria fowleri			trophozoites		IC50	> 16 µg/mL
CC12CC3CC(C)(C1)CC(N)(C3)C2	Plasmodium falciparum		W2			IC50	1.58 µM

Structure (SMILES)	organism	test	test system	setting	scale	quantity	result
CC[C@H](C)[C@H](NC(=O)[C@H](C)NC(=O)[C@H](CCCCN)NC(=O)[C@H](CC(C)C)NC(=O)[C@H](C)NC(=O)[C@@H](NC(=O)[C@H](Cc1c[nH]cn1)NC(=O)[C@H](CC(C)C)NC(=O)[C@@H](NC(=O)[C@@H](NC(=O)[C@H](CCCCN)NC(=O)[C@H](C)NC(=O)[C@H](C)NC(=O)[C@H](CO)NC(=O)[C@H](CCCCN)NC(=O)[C@H](Cc1ccccc1)NC(=O)[C@@H](NC(=O)[C@H](CCCCN)NC(=O)[C@H](CC(C)C)NC(=O)[C@H](Cc1ccccc1)NC(=O)[C@H](CO)NC(=O)[C@H](CCCCN)NC(=O)[C@H](Cc1c[nH]c2ccccc12)NC(=O)[C@H](CCCCN)NC(C)=O)[C@@H](C)O)[C@@H](C)O)C(C)C)[C@@H](C)O)C(=O)N[C@@H](CO)C(=O)N[C@@H](CO)C(N)=O	Citrobacter			20 strains		MIC50	8 µg/mL (≈ 2.73 µM)
CC(C)[C@@H]1NC(=O)[C@@H](CCCNC(=N)N)NC(=O)[C@H]([C@@H](C)O)NC(=O)[C@@H](CCCNC(=N)N)NC(=O)[C@H](Cc2ccccc2)NC(=O)[C@@H](Cc2ccccc2)NC1=O	Acanthamoeba castellanii			trophozoites		IC90	> 16 µg/mL
CCc1nc2nc(C)cc(Nc3ccc(F)c(Cl)c3)n2n1	Plasmodium falciparum	parasite growth, SYBR Green	3D7 DHODH E182D	72 h		EC50	8.3 ± 0.82 µM
COc1cc2c(cc1C(F)(F)F)N(C(=O)Nc1cc(F)cc(-c3cccnc3)c1)CC2	Plasmodium falciparum		HB3			IC50	1 µM
CC(C)[C@@H]1NC(=O)[C@@H](CCCCN)NC(=O)[C@H](CCCCN)NC(=O)[C@@H](CCCN)NC(=O)[C@H](C)NC(=O)[C@H](Cc2c[nH]c3ccccc23)NC(=O)[C@@H](Cc2ccccc2)NC1=O	Naegleria fowleri			trophozoites		IC90	> 16 µg/mL
COCc1ccccc1C(=O)NCCOc1cc(C)cc(C)c1	Plasmodium falciparum	parasite growth, SYBR Green	3D7 wild type	72 h		EC50	0.189 ± 0.055 µM
O=C(NN=Cc1ccc(O)c(Br)c1)c1cccc(Br)c1	Cryptococcus neoformans			concentration not given, with: tunicamycin		MIC in combination	0.15 µg/mL
NCCCC[C@H]1NC(=O)[C@H](Cc2ccccc2)NC(=O)[C@H](Cc2c[nH]c3ccccc23)NC(=O)[C@@H](Cc2ccccc2)NC(=O)[C@H](Cc2ccccc2)NC(=O)[C@@H](CCCN)NC(=O)[C@H](CCCN)NC1=O	Acanthamoeba castellanii			trophozoites		IC90	> 16 µg/mL
Cc1cc(=O)oc2c1ccc1oc(C(O)c3ccc(Cl)cc3)c(C)c12 (stereo not shown)	Plasmodium falciparum	parasite growth, SYBR Green	3D7 DHODH E182D	72 h		EC50	0.273 ± 0.038 µM
CN(C)CCCN1c2ccccc2CCc2ccccc21	Plasmodium falciparum		GB4			IC50	7.94 µM
CCOc1cccc(=O)c2c(C)n(Cc3ccc(Cl)cc3)c(C)c12	Plasmodium falciparum	parasite growth	Dd2			EC50	0.493 ± 0.25 µM
CC(C)[C@@H]1NC(=O)[C@@H](CCCN)NC(=O)[C@H]([C@@H](C)O)NC(=O)[C@@H](CCCN)NC(=O)[C@H](Cc2ccccc2)NC(=O)[C@@H](C)NC(=O)[C@@H](C(C)C)NC(=O)[C@@H](C)NC(=O)[C@H](Cc2c[nH]c3ccccc23)NC(=O)[C@@H](Cc2c[nH]c3ccccc23)NC1=O	Naegleria fowleri			trophozoites		IC50	> 16 µg/mL
CC(=O)c1c(Cc2ccccc2Cl)c[nH]c1C	Plasmodium falciparum	parasite growth, SYBR Green	3D7 wild type	72 h		EC50	0.424 ± 0.17 µM
NCCCC[C@@H]1NC(=O)[C@@H](CCCCN)NC(=O)[C@H](CO)NC(=O)[C@H](Cc2c[nH]c3ccccc23)NC(=O)[C@@H](Cc2c[nH]c3ccccc23)NC(=O)[C@H](Cc2ccccc2)NC(=O)[C@@H](CCCCN)NC1=O	Naegleria fowleri			trophozoites		IC90	> 16 µg/mL
COc1cc2nc(N3CCN(C(=O)C4COc5ccccc5O4)CC3)nc(N)c2cc1OC (stereo not shown)	Plasmodium falciparum		7G8			IC50	2 µM

A few entries again:
Structure (SMILES)	organism	test	test system	setting	scale	quantity	result
CCOc1cccc(=O)c2c(C)n(Cc3ccc(Cl)cc3)c(C)c12	Plasmodium falciparum	parasite growth	Dd2			EC50	0.493 ± 0.25 µM
CC(C)[C@@H]1NC(=O)[C@@H](CCCN)NC(=O)[C@H]([C@@H](C)O)NC(=O)[C@@H](CCCN)NC(=O)[C@H](Cc2ccccc2)NC(=O)[C@@H](C)NC(=O)[C@@H](C(C)C)NC(=O)[C@@H](C)NC(=O)[C@H](Cc2c[nH]c3ccccc23)NC(=O)[C@@H](Cc2c[nH]c3ccccc23)NC1=O	Naegleria fowleri			trophozoites		IC50	> 16 µg/mL
CC(=O)c1c(Cc2ccccc2Cl)c[nH]c1C	Plasmodium falciparum	parasite growth, SYBR Green	3D7 wild type	72 h		EC50	0.424 ± 0.17 µM
